Assay results collected from several papers.
± gives the spread as reported.

Compound | assay | test system | conditions | tissue uptake
COc1ccc(Nc2nc(Nc3ccc(OCCOCC[18F])cc3)ncc2Br)cc1 | – | ICR mice, S180 tumour-bearing, brain | intravenous, 370 kBq, 30 min | 2.32 ± 0.31 %ID/g
CC(C)c1noc(C2CCN(c3ncnc(Nc4ccc(OCC[18F])cc4)c3[N+](=O)[O-])CC2)n1 | ex vivo biodistribution after PET | C57BL/J male mice, lung | 60 min | 1.29 ± 0.07 %ID/g
O=C(NCC1OC2CCC=CCCC2O1)c1ccc(COCCOCCOCC[18F])cc1 (stereo not shown) | – | healthy female BALB/c nude mice, kidneys | intravenous, 7.4 MBq per mouse, 30 min | 9 ± 1.5 %ID/g
Cc1cc(C)n(CCN(CCN)CCCCCCNC(=O)[C@@H](N)Cc2c[nH]cn2)n1.[99Tc+].[C-]#[O+].[C-]#[O+].[C-]#[O+] | – | BALB/c nude mice A549 xenograft, blood | intravenous, 4 h | 0.3 ± 0.01 %ID/g
COc1ccc(Nc2nc(Nc3ccc(OCCOCCOCC[18F])cc3)ncc2Br)cc1 | – | ICR mice, S180 tumour-bearing, brain | intravenous, 370 kBq, 5 min | 2.54 ± 0.11 %ID/g
O=C(NCC1OC2CCC=CCCC2O1)c1ccc([18F])nc1 (stereo not shown) | – | healthy female BALB/c nude mice, lungs | intravenous, 7.4 MBq per mouse, 5 min | 5 ± 1.3 %ID/g
CN(O)C(=O)CCC(=O)NCCCN(CCCCN(CCCNC(=O)CCC(=O)N(C)O)C(=O)CCC(=O)N(C)O)C(=O)CCC(=O)N(C)O.[89Zr] | gamma counting | healthy Balb/c mice, muscle | intravenous, 24 h, 89Zr-labelled complex | 0.01 %ID/g
Cc1nc(N)nc2c1C(=O)N[C@@H](c1ccc(F)cc1-c1cccc(OCC[18F])n1)C2 | ex vivo biodistribution | C57BL/6 mice, kidneys | intravenous, 1 MBq, 30 min | 3.33 ± 0.2 %ID
CC(=O)N([O-])CCCCCNC(=O)CCC(=O)N([O-])CCCCCNC(=O)CCC(=O)N([O-])CCCCCN.[89Zr+4] | gamma counting | healthy Balb/c mice, adrenal | intravenous, 1 h, 89Zr-labelled complex | 1.03 ± 0.41 %ID/g
CC[C@H](C)[C@H](NC(=O)C[C@H](NC(=O)CN1CCN2CCN(CC1)CC(=O)[O][Al]([18F])[O]C(=O)C2)C(=O)O)C(=O)N[C@H]1CCc2cccc3c2N(C1=O)[C@H](C(=O)NCc1cn[nH]n1)C3 | – | C57BL/6J mice, MC-38 tumour, anti-PD-1 treated, lung | 0.5 h | 1.42 ± 0.37 %ID/g

Excerpt of the above:
Compound | assay | test system | conditions | tissue uptake
Cc1nc(N)nc2c1C(=O)N[C@@H](c1ccc(F)cc1-c1cccc(OCC[18F])n1)C2 | ex vivo biodistribution | C57BL/6 mice, kidneys | intravenous, 1 MBq, 30 min | 3.33 ± 0.2 %ID
